Results from different studies.
Lines come from different studies, so protocols differ. Several values in a cell are separate wells, animals, samples, runs or records. ± marks the error that the study gave.
MAPK8: Mitogen-activated protein kinase 8 (MAPK8, Homo sapiens, UniProt P45983)

| Structure (SMILES) | target | assay | system | setting | how to read | endpoint | result |
| --- | --- | --- | --- | --- | --- | --- | --- |
| O=C1c2sc(-c3ccc(N4CCC(F)C4)nc3F)nc2CCN1c1cccnc1 (stereo not shown) | SKCa channel | radioligand binding |  | 1 µM, with: antagonist radioligand |  | inhibition | -12% |
| C=C1CC2(C(=O)OC)C=C(C(=O)OC(C)(C)C)C(=O)C1C2 (stereo not shown) | MAPK8 | D-peptide binding, inhibitor, FP peptide displacement |  | 250 µM | lower is stronger displacement | fraction bound | 0.182 |
| CCOC(=O)C(CC)(CCCSCCOCCOCCOCCN)NC(=O)c1ccc(C2CC2)c(Cc2ccc(F)cc2)n1 (stereo not shown) | Cnr2 (Mus musculus, UniProt P47936) | cAMP, agonist |  |  |  | Emax | 93% |
| CCCCCC=CC=C1C(=O)C=CC1CC=CCCCC(=O)O (stereo not shown) | Myosin regulatory light chain 12B (MYL12B, Homo sapiens, UniProt O14950) | competitive isoTOP-ABPP, refers to: MRLC2 cysteine peptide | Ramos soluble proteome | 100 µM, with: iodoacetamide probe | reference: DMSO over compound-treated, higher = stronger cysteine blockade | isoTOP-ABPP competition ratio | 2.7 |
| COc1cc(Nc2nccc(-c3cnn4nc(OC)ccc34)n2)cc(C(F)(F)F)c1 | Tyrosine-protein kinase ABL1, non-phosphorylated (ABL1, Homo sapiens, UniProt P00519, F317L) | binding |  | 1 µM |  | remaining binding | 100% |
| CCCCCCCC/C=C\CCCCCCCC(=O)OCC(O)COP(=O)(O)O (stereo not shown) | LPAR1 (Homo sapiens, UniProt Q92633) | G-protein dissociation, agonist, NanoBiT | HEK-293T | 10 pM, wild-type receptor | reference: baseline luminescence | fold change | 1 and 0.999 and 1.01 and 0.986 and 0.993 |
| O=C(O)c1cccc(-c2ccccc2O[C@@H]2O[C@H](CO)[C@H](O)[C@H](O)[C@H]2O)c1 | Adhesin FmlH, lectin domain (Escherichia coli, UniProt Q1RBS0) | binding to desialylated BSM, competition ELISA | UPEC UTI89 | 10 µM |  | inhibition (PI10) | 75.1 ± 1% |
| CN(C)c1ccc(-n2cc(COC(=O)[C@]3(C)C=C(C(=O)OC(C)(C)C)C(=O)CC3)nn2)cc1 | MAPK8 | D-peptide binding, inhibitor, FP peptide displacement |  | 12.5 µM | lower is stronger displacement | fraction bound | 0.649 |
| CC[C@H](C)[C@@H](C(=O)N[C@@H](CC(C)C)C(=O)N[C@@H](CO)C(=O)N[C@@H](CO)C(=O)N[C@H](C(=O)N[C@@H](CC(N)=O)C(=O)N[C@H](C(=O)NCC(=O)N[C@@H](CO)C(=O)N[C@@H](CC(N)=O)C(=O)N[C@H](C(=O)N1C[C@H](O)C[C@H]1C(N)=O)[C@@H](C)O)C(C)C)[C@@H](C)O)N(C)C(=O)[C@H](C)NC(=O)CN(C)C(=O)[C@H](Cc1ccccc1)NC(=O)[C@H](CC(N)=O)NC(=O)[C@H](CC(N)=O)NC(=O)[C@H](CO)NC(=O)[C@H](CO)NC(=O)[C@H](CCCNC(=N)N)NC(=O)[C@H](Cc1c[nH]cn1)NC(=O)[C@H](CC(C)C)NC(=O)[C@H](Cc1ccccc1)NC(=O)[C@H](CCC(=O)O)NC(=O)[C@H](C)NC(=O)[C@H](CC(C)C)NC(=O)[C@H](CCCNC(=N)N)NC(=O)[C@H](CCC(N)=O)NC(=O)[C@@H](NC(=O)[C@H](C)NC(=O)[C@@H]1CSSC[C@H](NC(=O)[C@H](CCCNC(=N)N)NC(=O)CC[C@H](NC(=O)CCCCCCCCCCCCCCCCCCC(=O)O)C(=O)O)C(=O)N[C@@H](CC(N)=O)C(=O)N[C@@H]([C@@H](C)O)C(=O)N[C@@H](C)C(=O)N[C@@H]([C@@H](C)O)C(=O)N1)[C@@H](C)O | Amylin receptor AMY3; CALCR/RAMP3 (Homo sapiens, UniProt O60896+P30988) | cAMP accumulation, agonist | COS-7 |  | reference: over native Tyr37 analogue | potency increase | 3 to 4 fold |
| CC[C@H](C)[C@@H]1NC(=O)[C@H](Cc2ccc(O)cc2)NC(=O)[C@H](Cc2ccccc2)NC(=O)[C@H](C(C)C)NC(=O)[C@H](Cc2ccccc2)NC(=O)CSC[C@@H](C(=O)N[C@@H](Cc2c[nH]cn2)C(N)=O)NC(=O)[C@H](CC(N)=O)NC(=O)[C@H](Cc2c[nH]c3ccccc23)NC1=O | STING1 (Homo sapiens, UniProt Q86WV6, H232R) | thermal stability, DSF |  | 100 µM |  | ΔTm | 8.95 °C |
| O=C(O)C1OC(OC2C(C(=O)O)OC(OC3C(C(=O)O)OC(OC4C(C(=O)O)OC(OC5C(C(=O)O)OC(OC6C(C(=O)O)OC(O)C(O)C6O)C(O)C5O)C(O)C4O)C(O)C3O)C(O)C2O)C(O)C(O)C1O (stereo not shown) | Beta-lactoglobulin (LGB, Bos taurus, UniProt P02754, A134V/G80D) | isothermal titration calorimetry |  | pH 4.00, 37 °C, 50 mM KH2PO4 |  | -TΔS | 1.2 kcal/mol |
| N=C(N)NCCS(=O)(=O)O | SLC6A6 (Homo sapiens, UniProt P31641, Y138A) | binding, microscale thermophoresis |  | 33 nM, fitted curve | higher = more binding | fraction bound | 0 |
| CN(Cc1cc(C2CC2)on1)C(=O)c1cccc(-c2ccc3c(c2)CCO3)c1 | acetoacetyl-CoA synthetase (Cryptococcus neoformans) | enzyme activity, inhibitor |  | 7.81 µM |  | remaining activity | 103% |

For quick reference, copied from above:
| Structure (SMILES) | target | assay | system | setting | how to read | endpoint | result |
| --- | --- | --- | --- | --- | --- | --- | --- |
| CC[C@H](C)[C@@H]1NC(=O)[C@H](Cc2ccc(O)cc2)NC(=O)[C@H](Cc2ccccc2)NC(=O)[C@H](C(C)C)NC(=O)[C@H](Cc2ccccc2)NC(=O)CSC[C@@H](C(=O)N[C@@H](Cc2c[nH]cn2)C(N)=O)NC(=O)[C@H](CC(N)=O)NC(=O)[C@H](Cc2c[nH]c3ccccc23)NC1=O | STING1 (Homo sapiens, UniProt Q86WV6, H232R) | thermal stability, DSF |  | 100 µM |  | ΔTm | 8.95 °C |
